Results collected from several papers.
Numbered parts are unrelated; each lists some results of a single study.
UniProt P10721, sequence (whole entry, unmodified, looked up): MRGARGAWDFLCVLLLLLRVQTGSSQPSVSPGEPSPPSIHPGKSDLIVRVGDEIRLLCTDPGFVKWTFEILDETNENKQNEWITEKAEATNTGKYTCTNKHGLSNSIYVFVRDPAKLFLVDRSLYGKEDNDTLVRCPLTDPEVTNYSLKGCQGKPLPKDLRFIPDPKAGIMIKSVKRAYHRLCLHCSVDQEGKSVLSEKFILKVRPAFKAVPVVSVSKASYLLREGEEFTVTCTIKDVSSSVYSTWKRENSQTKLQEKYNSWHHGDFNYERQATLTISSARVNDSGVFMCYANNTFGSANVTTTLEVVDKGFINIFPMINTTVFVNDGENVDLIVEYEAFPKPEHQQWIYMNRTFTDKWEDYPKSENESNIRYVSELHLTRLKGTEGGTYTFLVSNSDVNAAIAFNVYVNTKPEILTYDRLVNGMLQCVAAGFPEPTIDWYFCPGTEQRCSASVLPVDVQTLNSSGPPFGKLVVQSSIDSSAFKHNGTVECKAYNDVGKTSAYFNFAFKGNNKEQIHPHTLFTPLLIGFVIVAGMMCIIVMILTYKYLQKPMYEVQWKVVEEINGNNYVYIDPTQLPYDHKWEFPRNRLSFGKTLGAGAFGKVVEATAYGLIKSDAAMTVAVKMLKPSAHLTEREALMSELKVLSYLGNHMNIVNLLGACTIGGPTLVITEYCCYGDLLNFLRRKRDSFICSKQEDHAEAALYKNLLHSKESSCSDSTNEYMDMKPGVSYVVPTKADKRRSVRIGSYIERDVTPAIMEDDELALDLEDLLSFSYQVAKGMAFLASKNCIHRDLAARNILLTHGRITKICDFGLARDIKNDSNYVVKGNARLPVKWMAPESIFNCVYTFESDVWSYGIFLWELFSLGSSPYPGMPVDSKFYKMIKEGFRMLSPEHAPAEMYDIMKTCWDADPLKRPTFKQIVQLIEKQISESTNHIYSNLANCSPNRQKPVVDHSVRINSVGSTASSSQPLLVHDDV
UniProt Q9UBE8, sequence (whole entry, looked up): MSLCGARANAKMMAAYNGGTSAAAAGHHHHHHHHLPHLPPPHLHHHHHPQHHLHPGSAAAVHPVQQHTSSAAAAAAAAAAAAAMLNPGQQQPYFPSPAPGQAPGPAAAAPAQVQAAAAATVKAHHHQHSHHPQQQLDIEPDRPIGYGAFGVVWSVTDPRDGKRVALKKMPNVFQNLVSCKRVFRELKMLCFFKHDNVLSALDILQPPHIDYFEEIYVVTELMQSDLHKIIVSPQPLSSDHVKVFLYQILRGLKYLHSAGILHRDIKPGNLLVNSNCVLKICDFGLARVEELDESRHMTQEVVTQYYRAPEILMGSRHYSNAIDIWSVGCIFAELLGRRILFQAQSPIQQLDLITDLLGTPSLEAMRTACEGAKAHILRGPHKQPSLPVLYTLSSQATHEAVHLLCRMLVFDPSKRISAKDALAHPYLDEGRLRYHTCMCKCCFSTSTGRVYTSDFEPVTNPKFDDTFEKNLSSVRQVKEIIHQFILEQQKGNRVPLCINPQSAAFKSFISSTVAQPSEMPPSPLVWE
UniProt Q00534, sequence (whole entry, looked up): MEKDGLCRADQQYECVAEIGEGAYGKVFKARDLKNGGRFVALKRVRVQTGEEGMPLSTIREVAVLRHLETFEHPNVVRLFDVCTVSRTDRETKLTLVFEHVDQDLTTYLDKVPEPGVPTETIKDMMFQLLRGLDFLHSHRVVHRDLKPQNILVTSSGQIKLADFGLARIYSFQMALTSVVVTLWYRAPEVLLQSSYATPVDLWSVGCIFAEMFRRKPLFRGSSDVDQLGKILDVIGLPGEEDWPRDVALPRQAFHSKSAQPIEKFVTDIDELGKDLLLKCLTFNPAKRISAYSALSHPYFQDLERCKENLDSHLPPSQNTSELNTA
UniProt O75676, sequence (whole entry, looked up): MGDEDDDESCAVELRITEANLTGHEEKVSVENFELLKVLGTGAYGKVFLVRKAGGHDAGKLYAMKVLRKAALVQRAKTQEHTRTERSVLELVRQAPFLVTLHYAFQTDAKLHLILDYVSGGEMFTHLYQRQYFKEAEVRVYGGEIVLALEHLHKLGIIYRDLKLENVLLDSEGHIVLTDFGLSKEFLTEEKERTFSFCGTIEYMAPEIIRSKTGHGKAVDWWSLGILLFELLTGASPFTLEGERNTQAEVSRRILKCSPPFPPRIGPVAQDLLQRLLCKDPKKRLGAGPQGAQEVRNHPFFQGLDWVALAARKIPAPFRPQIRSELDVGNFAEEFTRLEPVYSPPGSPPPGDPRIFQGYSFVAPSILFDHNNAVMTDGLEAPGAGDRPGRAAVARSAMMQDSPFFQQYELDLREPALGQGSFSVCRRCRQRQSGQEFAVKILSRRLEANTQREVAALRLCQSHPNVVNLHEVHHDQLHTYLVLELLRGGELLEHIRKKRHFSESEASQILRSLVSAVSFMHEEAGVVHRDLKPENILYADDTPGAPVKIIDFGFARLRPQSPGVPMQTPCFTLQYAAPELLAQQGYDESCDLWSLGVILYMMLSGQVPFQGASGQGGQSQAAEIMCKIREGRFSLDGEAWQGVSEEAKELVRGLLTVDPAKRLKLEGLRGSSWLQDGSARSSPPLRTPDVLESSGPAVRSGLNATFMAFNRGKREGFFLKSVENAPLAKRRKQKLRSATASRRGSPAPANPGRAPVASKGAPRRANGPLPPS
UniProt Q16584, sequence (whole entry, looked up): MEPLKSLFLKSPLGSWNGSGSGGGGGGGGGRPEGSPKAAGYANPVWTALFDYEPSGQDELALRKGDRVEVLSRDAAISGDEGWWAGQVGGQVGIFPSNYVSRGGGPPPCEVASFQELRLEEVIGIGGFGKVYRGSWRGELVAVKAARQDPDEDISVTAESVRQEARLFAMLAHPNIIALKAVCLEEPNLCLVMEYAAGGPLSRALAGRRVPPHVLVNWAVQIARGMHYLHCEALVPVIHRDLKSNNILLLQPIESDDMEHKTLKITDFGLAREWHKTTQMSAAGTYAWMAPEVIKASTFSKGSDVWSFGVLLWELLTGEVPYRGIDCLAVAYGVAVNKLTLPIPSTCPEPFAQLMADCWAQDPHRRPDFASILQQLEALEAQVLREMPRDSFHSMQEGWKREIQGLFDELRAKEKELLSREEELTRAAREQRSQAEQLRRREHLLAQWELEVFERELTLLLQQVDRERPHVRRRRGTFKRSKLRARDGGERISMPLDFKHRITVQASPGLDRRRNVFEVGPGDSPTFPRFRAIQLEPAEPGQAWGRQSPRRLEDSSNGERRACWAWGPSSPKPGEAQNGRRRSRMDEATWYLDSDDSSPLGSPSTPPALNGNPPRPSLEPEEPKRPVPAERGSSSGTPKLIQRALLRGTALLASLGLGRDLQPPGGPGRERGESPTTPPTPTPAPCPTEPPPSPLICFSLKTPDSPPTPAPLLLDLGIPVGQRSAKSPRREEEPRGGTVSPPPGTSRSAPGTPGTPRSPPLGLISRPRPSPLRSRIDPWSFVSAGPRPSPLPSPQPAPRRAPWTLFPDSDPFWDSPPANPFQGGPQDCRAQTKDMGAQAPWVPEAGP
UniProt Q9Y4K4, sequence (whole entry, looked up): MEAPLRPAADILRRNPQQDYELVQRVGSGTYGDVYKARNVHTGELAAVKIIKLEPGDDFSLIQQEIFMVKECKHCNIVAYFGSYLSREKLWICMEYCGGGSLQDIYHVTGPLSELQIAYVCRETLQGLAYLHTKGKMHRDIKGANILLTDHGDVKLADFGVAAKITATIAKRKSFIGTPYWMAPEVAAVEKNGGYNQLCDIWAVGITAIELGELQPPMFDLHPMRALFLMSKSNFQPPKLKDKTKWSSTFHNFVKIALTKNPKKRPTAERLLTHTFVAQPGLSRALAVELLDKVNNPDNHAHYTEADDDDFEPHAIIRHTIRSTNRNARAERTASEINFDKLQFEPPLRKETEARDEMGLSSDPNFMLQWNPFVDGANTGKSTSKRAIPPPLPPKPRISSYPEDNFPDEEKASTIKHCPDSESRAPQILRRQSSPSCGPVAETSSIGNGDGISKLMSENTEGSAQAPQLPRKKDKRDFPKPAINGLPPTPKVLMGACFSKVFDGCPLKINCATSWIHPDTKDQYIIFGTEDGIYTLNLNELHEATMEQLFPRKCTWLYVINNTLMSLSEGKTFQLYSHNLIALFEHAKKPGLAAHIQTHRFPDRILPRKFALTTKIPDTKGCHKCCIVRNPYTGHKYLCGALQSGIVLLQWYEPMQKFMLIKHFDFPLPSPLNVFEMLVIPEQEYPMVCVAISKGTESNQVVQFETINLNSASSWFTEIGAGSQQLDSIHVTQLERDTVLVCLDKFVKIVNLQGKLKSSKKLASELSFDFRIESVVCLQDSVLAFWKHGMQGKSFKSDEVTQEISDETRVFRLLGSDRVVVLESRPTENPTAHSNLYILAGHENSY
UniProt Q00532, sequence (whole entry, looked up): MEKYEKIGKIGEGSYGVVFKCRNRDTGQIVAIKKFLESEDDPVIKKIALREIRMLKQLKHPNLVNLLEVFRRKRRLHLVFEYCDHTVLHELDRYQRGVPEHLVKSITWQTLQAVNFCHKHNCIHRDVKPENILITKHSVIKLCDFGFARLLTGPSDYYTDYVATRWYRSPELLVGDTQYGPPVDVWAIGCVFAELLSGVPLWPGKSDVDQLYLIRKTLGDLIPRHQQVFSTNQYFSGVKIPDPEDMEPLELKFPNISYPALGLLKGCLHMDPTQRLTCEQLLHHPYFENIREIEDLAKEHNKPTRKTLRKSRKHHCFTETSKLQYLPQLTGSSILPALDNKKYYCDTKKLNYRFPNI
UniProt P06493, sequence (whole entry, looked up): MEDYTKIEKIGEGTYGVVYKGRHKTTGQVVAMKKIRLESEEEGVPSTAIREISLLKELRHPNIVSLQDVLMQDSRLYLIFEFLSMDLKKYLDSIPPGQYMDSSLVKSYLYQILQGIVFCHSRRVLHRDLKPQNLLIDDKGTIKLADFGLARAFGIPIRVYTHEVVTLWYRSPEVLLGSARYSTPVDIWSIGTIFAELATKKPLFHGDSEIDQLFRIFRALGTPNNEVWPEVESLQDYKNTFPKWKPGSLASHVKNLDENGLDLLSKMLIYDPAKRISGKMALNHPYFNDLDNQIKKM

Set 1
Structure (SMILES): CN1CCN(c2ccc3nc(-c4c(N)c5c(F)cccc5[nH]c4=O)[nH]c3c2)CC1
Read-out: enzyme activity
Mode: inhibitor
Concentration: 0.5 µM
Reference: control
target	remaining activity
SRMS (Homo sapiens, UniProt Q9H3Y6)	94.4%
EPHB4 (Homo sapiens, UniProt P54760)	73.5%
Cyclin-dependent kinase 6, with cyclin D3 (CDK6, Homo sapiens, UniProt Q00534)	31.9%
BLK (Homo sapiens, UniProt P51451)	12.3%
CAMK2B (Homo sapiens, UniProt Q13554)	85.6%
Cyclin-dependent kinase 1, with cyclin B (CDK1, Homo sapiens, UniProt P06493)	90.9%

Set 2
Target: RING finger protein unkempt homolog, zinc fingers 1-6, GST-SBP tag (UNK, Homo sapiens, UniProt Q9C0B0, residues 30-357)
Technique: RNA Bind-n-Seq
Molecule type: RNA
Sample: in vitro
Concentration: not given
Setting: RNA with constant flanks, human and mouse sites, ends assumed
Reference: input RNA pool
Reading: higher = stronger binding
Constant ends, left off below: GGGAGUUCUACAGUCCGACGAUC … CAACAGAGGAUUGAGCAUCA
Construct (chain): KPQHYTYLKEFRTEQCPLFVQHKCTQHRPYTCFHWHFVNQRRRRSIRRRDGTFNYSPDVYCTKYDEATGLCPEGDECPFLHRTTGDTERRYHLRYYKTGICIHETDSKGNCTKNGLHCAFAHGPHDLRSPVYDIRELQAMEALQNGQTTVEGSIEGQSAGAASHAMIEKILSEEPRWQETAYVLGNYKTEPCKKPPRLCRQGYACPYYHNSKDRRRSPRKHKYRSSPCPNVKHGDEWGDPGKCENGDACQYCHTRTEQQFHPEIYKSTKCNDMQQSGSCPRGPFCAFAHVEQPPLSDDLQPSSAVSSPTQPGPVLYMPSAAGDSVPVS
Oligonucleotide	bound/input enrichment [ratio]
AAGGUUAAGUACCACAUUCUCCUCUAAACCUUGCCUACGACAUGUUUAAUACUUCAUCUACAUAGCAGCCCUUCAGAUAAUCACAACCACUUUGCCCCCAAGUUUUCAGGUUAAGUAGCA	2.63
UUUCUCUCUUCCCCUCUCCCUCUCCCUCUGCCGGGUGGAUGCUUUCUCCAUGUGGCAAGGCUGUAACUGUUCACAGCUGUCUGAAACAGCAGUGGACCAGGAGCAGCUUGGAGUUUUAAC	0.759
CCCUUUGGCGGACCUUUUGAUGUGAGUAGAUGUUUUCUAGGAUAAAAUUUAAGGACUAAUUUUAGACUUAAAACAUUCCACUUUUGUAAGUUGUUUUCAGUGGUCUUAUGUAGAGCAAGC	0.461
CUCUCCAACUGCAACCACACCUACUGUCUCAAGUGUAUUCGCAAGUGGAGAAGUGCUAAACAAUUUGAGAGCAAGAUCAUAAAGUCCUGCCCCGAAUGCCGGAUCACAUCUAACUUUGUC	0.0851
CCCCACCCUUUUGCUUCUUUCCACCCGGGCCUGAACCCCUUGGAGAGGGAGAGACUGGCCCUGGCGGGCCCCCAGCUGCGGCCCGAGAUGAGCUACCCUGACAGACUGGCAGCCGAGCGU	0.123
GGUCCUGGCCCCUUACAAGAGAGAUCUCUCUUUGAGAAAAAGAGGGGCGCUCCUCCAAGUAGCAAUAUUGAAGACUUCCAUGGACUCUUACCGAAGGGUUAUCCCCAUCUGUGCUCUAUA	0.485
AGAGCCCCGCGCCCGCUGUAAUUAUUUUCUAUUUUUGUAAACUUGUUGCUUUUUGAUAUGAUUUUCUUGCCUGAGUGUUGGCCGGAGGGACUGCUGGCCCGGCCUCCCUUCCGUCCAGGC	3.5
CCAAAUGGUGUUAUCCCUUUUCAUGGAUUUUCAAUGUAUGUUGCACCACUUUGUUUUCUAUACCAUGAACCUUCCAAAUUGUAUCAGAUAUUCCGUGAGAUGUAUGUGCGUUUUUUCUUC	0.187

Set 3
Target: Sal-like protein 4, full length isoform B (SALL4, Homo sapiens, UniProt Q9UJQ4-2, residues 1-616)
Technique: universal PBM
Molecule type: double-stranded DNA, one strand shown
Sample: in vitro
Concentration: not given
Setting: 8-mer, flanks averaged, mean of replicates
Reading: higher = stronger binding
Oligonucleotide	E-score
GGGATCCA	-0.161
GAATTTCC	0.0571
ACAGGCGG	-0.22
AACGCCCA	0.00848
AGAAAGAT	0.169
CAAATTGG	0.145
GCAGCAAC	-0.106
CCCTCACC	-0.278

Set 4
SMILES: CN(C(=O)c1ccccc1)c1cc(N(C)c2ccc3c(c2)CCc2ccc(C(=O)NCCN4CCOCC4)cc2C3=O)ccc1F
Read-out: cell-free assay
Technique: competition with immobilised ligand
Concentration: 1 µM
target	remaining binding [%]
TNIK (Homo sapiens, UniProt Q9UKE5)	100
Ribosomal protein S6 kinase alpha-2, C-terminal kinase domain (RPS6KA2, Homo sapiens, UniProt Q15349)	92
KIT (Homo sapiens, UniProt P10721, L576P)	100
MAP2K7 (Homo sapiens, UniProt O14733)	100
KIT (Homo sapiens, UniProt P10721, V559D/V654A)	100
CDKL1 (Homo sapiens, UniProt Q00532)	80
MAP4K5 (Homo sapiens, UniProt Q9Y4K4)	100
MAP3K11 (Homo sapiens, UniProt Q16584)	92
DYRK1A (Homo sapiens, UniProt Q13627)	100
Tyrosine-protein kinase ABL1, phosphorylated (ABL1, Homo sapiens, UniProt P00519, M351T)	100
Ribosomal protein S6 kinase alpha-4, C-terminal kinase domain (RPS6KA4, Homo sapiens, UniProt O75676)	100
NLK (Homo sapiens, UniProt Q9UBE8)	100

For quick reference, copied from above (set 3):
Oligonucleotide	E-score
AACGCCCA	0.00848
AGAAAGAT	0.169
